# Measured values from different studies.
# Each numbered part is a random draw from the data of one study; scales do not carry over between parts. pKi: −log10 of the molar value.
# UniProt Q5BJF2, sequence (whole entry, looked up): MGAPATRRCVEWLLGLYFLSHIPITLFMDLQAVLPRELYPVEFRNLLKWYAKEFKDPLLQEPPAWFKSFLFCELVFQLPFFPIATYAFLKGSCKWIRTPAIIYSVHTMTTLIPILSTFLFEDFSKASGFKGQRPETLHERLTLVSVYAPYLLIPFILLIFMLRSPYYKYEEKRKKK
# UniProt Q96BR1, sequence (whole entry, looked up): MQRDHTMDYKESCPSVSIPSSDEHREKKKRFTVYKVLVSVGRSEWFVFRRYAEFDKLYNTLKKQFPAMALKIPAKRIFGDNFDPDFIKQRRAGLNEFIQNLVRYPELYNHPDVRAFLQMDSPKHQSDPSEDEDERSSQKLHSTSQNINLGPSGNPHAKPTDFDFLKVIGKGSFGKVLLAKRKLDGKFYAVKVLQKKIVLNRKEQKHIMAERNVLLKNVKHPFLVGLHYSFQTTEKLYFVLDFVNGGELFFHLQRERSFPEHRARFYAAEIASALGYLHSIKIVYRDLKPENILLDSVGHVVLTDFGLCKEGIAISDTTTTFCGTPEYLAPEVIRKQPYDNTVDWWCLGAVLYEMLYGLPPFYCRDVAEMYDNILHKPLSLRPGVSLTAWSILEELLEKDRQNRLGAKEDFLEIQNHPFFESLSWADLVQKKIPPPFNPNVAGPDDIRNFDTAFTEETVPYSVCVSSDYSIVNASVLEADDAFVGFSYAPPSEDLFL
# UniProt P08588, sequence (whole entry, looked up): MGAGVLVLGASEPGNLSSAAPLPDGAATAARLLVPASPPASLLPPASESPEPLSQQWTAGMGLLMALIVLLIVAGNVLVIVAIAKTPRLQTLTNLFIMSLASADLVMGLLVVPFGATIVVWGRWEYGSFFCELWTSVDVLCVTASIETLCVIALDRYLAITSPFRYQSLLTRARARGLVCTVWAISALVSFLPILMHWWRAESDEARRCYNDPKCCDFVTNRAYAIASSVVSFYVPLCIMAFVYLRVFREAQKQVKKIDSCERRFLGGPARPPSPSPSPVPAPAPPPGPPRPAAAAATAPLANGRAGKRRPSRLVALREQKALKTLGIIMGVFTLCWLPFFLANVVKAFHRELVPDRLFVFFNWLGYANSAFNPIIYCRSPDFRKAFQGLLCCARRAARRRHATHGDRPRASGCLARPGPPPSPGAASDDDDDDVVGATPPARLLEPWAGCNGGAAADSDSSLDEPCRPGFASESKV

# Study 1
# Target: Sal-like protein 4, full length isoform A (SALL4, Homo sapiens, UniProt Q9UJQ4, residues 1-1053)
# UniProt Q9UJQ4, sequence (whole entry, looked up): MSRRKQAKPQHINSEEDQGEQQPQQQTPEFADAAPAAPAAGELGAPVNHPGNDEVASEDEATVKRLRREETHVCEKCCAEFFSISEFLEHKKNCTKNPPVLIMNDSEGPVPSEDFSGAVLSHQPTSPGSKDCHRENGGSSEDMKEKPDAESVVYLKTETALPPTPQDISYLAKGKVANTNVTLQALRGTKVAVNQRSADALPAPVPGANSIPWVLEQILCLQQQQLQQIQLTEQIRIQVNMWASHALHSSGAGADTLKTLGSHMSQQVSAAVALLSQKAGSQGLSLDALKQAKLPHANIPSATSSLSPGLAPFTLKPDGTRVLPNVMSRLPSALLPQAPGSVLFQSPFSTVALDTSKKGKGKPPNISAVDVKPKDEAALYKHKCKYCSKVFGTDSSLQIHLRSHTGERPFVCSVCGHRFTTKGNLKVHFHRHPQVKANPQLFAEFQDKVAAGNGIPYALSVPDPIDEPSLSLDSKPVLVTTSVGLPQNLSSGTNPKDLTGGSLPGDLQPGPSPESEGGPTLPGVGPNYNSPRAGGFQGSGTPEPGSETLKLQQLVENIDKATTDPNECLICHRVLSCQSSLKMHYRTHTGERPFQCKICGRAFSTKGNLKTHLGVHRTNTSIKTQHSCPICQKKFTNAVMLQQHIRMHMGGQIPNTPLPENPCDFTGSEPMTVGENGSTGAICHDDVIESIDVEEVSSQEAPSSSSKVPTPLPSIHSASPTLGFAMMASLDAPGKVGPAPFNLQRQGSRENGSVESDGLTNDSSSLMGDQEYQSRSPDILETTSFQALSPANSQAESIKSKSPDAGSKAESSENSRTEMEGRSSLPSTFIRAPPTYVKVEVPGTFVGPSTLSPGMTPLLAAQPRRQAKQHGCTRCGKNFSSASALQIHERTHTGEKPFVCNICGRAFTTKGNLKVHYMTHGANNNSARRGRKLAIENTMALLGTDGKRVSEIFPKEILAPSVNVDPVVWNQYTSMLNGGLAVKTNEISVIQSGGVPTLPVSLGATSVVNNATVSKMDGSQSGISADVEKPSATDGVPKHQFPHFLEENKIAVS
# Technique: universal PBM
# Molecule type: double-stranded DNA, one strand shown
# Sample: in vitro
# Concentration: 600 nM
# Setting: 8-mer, flanks averaged, mean of replicates
# Direction: higher = stronger binding
Strand,E-score
GGTTCGTA,-0.0256
ACGAGCAG,-0.0571
ATTGCGGA,0.0827
ATAGCACC,0.128
AAAAACAA,0.264
AAAGCCGG,-0.165
CAACGTAG,0.0802
CGCGAAAA,0.0388

# Study 2
# Target: Interferon regulatory factor 3, full length, phosphomimetic (IRF3, Homo sapiens, UniProt Q14653, residues 1-427, S386D/S396D/S398D/S402D/T404D/S405D)
# UniProt Q14653, sequence (whole entry, unmodified, looked up): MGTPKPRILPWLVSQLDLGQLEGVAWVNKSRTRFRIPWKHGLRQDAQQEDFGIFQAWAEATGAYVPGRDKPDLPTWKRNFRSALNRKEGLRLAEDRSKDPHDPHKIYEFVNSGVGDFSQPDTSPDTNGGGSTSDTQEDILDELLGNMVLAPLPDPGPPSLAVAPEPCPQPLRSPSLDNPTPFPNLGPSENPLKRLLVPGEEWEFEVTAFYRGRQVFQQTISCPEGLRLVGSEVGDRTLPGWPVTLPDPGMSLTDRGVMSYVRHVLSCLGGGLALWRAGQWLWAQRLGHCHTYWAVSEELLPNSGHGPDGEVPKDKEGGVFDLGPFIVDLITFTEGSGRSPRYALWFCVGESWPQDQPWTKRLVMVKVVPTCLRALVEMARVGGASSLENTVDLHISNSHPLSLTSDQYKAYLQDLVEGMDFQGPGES
# Technique: protein-binding microarray
# Molecule type: double-stranded DNA, one strand shown
# Sample: in vitro
# Concentration: 2540 nM top
# Setting: 60-bp whole probe
# Together with: salmon DNA 0.4 mg/ml
# Relative to: random background probes
# Direction: higher = stronger binding
# Constant ends, left off below: GCCTAGCAC … GTCTTGATTCGCTTGACGCTGCTG
Strand,fitted relative affinity
GACGGACTGGTGTATCGGGACGTGCTA,-0.325 z-score
GACGGACTGGTTCTCGGGACGTGCTAG,-0.167 z-score
ATGCTACAATAAGTGTTAGTGTGCTAG,-0.171 z-score
GACGGTTTCGACTTTCGGGGCGTGCTA,3.9 z-score
TTAGGTTTCGGGACTGGGTGAGTGCTA,4.34 z-score
TGTACTCTCTACATGGGCTTGTGCTAG,-0.0356 z-score
TCAGCTTTGCTTCCTGCACTGTGCTAG,-0.169 z-score
TTAGATTTCAGTTACGATTAGTGCTAG,1.74 z-score

# Study 3
# Target: Serine/threonine-protein kinase haspin (HASPIN, Homo sapiens, UniProt Q8TF76)
# UniProt Q8TF76, sequence (whole entry, looked up): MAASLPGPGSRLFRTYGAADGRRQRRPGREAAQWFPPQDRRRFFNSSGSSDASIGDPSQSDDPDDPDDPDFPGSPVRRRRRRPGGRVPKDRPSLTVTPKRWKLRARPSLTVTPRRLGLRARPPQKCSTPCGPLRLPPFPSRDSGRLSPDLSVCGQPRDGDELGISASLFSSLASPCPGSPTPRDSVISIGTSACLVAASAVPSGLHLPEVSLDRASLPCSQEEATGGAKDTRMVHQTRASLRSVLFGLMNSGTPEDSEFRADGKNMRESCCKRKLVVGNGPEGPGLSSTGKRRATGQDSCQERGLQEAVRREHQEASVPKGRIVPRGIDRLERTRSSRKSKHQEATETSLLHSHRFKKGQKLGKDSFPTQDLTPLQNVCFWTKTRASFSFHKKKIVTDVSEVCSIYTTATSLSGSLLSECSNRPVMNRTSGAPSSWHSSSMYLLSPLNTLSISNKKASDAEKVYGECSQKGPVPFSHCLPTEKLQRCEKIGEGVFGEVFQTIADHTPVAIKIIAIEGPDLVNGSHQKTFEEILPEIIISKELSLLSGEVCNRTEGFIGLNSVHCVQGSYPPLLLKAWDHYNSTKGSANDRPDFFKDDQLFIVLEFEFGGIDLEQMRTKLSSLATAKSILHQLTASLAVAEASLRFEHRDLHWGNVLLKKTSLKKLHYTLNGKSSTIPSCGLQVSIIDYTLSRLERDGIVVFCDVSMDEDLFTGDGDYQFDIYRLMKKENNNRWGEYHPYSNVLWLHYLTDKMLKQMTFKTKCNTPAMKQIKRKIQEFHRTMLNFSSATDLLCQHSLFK
# Effect on: enzyme activity
# Mode: inhibitor
# Concentration: 0.5 µM
# Relative to: control
SMILES,remaining activity [%]
O=C1NC(=O)C(c2c[nH]c3ccccc23)=C1c1c[nH]c2ccccc12,84.7
Cc1ccc(NC2=CC(=O)c3sc(C)nc3C2=O)cc1,86.6
Nc1ncnc2c1cnn2-c1ccccc1,94.8
NC(=O)c1ccc(N(C(N)=O)c2c(F)cccc2F)nc1-c1ccc(F)cc1F,81.3
CC(C)(C)n1nc(Cc2cccc3ccccc23)c2c(N)ncnc21,57.1
Cc1cc(Nc2nc(-c3ccccc3)nc3ccccc23)n[nH]1,90.5
CC(=O)c1ccc(N2CCOCC2)cc1O,79.6
CCc1[nH]c(-c2ccc(OC)cc2)nc1-c1ccncc1,55.9
Oc1ccc(Nc2nc(-c3ccc(Cl)cc3)cs2)cc1,100
Cc1cncc2cccc(S(=O)(=O)N3CCCN(C(=O)CN)C[C@@H]3C)c12,99.4
Nc1nc(Nc2ccc(S(N)(=O)=O)cc2)nn1C(=O)c1c(F)cccc1F,107

# Further values, each from its own experiment
Compound,target,test,conditions,endpoint,value
O=C(NNS(=O)(=O)c1ccccc1F)c1cc(F)cc(-c2ccccn2)c1,"ADRB1 (Homo sapiens, UniProt P08588)",cell-free assay,10 µM,inhibition,-0.13%
CNC(=O)Nc1ccc2c(c1)[C@@]1(CC2)OC(=O)N(CC(=O)N(Cc2ccc(F)cc2)[C@@H](C)C(F)(F)F)C1=O,"SGK3 (Homo sapiens, UniProt Q96BR1)","cell-free assay, competition with immobilised ligand",1 µM,remaining binding,72%
COc1cc(-c2cn(C3CCc4ccccc4N(CC(F)(F)F)C3=O)nn2)ccc1-n1ccc(C)n1 (stereo not drawn),"TMEM97 (Homo sapiens, UniProt Q5BJF2)",binding,,pKi,6.08

# For quick reference, copied from above (study 2):
Strand,fitted relative affinity
GACGGTTTCGACTTTCGGGGCGTGCTA,3.9 z-score
TTAGGTTTCGGGACTGGGTGAGTGCTA,4.34 z-score
TGTACTCTCTACATGGGCTTGTGCTAG,-0.0356 z-score
TCAGCTTTGCTTCCTGCACTGTGCTAG,-0.169 z-score
TTAGATTTCAGTTACGATTAGTGCTAG,1.74 z-score
